Assay results from different studies.
Protocols differ between the studies behind these lines.
Sequence of UniProt Q9P2K8 (whole entry, unmodified, looked up): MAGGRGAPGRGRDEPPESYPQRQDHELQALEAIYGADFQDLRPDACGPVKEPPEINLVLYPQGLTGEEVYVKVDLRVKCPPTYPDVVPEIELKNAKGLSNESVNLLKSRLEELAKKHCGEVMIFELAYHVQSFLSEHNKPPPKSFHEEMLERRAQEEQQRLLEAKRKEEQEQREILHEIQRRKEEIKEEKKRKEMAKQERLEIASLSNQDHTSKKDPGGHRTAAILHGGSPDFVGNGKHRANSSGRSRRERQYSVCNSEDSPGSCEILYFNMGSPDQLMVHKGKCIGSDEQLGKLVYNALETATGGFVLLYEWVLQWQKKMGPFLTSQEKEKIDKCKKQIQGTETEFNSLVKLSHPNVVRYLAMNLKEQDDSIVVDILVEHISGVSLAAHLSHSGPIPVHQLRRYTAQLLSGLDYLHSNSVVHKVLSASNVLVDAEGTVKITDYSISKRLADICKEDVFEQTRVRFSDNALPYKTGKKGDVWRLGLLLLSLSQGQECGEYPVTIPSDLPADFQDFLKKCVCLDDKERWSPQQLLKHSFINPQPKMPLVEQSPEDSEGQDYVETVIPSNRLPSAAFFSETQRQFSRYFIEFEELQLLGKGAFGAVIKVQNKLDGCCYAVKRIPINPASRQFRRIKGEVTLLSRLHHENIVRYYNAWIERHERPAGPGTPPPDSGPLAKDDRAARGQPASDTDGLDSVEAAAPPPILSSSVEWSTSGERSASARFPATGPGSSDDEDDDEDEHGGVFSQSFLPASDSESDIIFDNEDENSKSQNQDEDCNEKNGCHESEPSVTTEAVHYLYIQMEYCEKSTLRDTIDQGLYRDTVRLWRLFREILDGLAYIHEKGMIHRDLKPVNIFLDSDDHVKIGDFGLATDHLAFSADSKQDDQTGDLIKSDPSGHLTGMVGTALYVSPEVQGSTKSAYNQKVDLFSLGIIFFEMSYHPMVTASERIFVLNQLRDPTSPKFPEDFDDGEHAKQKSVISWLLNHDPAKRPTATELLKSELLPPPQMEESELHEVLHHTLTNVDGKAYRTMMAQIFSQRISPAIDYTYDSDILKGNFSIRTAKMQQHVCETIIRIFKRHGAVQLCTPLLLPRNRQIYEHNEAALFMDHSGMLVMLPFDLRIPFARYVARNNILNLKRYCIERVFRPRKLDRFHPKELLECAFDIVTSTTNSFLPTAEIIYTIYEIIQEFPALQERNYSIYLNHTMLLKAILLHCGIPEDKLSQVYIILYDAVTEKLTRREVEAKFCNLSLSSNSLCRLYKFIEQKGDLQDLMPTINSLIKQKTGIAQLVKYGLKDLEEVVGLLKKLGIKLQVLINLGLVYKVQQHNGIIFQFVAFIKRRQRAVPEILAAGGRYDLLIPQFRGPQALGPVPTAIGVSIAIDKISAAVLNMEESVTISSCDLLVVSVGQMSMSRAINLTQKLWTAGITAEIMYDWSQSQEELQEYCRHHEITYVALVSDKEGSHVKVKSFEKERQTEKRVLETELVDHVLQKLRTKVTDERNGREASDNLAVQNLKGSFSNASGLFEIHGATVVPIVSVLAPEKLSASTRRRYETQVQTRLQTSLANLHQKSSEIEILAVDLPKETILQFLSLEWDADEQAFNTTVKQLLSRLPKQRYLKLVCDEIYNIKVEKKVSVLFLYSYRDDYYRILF
Sequence of UniProt Q9UEE5 (whole entry, looked up): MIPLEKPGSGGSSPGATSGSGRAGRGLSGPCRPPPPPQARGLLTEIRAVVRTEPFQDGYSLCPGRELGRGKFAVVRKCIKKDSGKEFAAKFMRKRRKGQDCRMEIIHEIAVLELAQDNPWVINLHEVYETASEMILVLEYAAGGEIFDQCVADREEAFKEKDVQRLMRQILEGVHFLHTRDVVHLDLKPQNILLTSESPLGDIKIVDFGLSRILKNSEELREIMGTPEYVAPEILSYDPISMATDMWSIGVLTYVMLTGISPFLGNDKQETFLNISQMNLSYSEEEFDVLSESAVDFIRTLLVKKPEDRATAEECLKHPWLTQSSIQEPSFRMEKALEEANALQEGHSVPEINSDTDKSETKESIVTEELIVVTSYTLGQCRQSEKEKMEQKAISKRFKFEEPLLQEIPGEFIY
Sequence of UniProt Q9UM73 (whole entry, unmodified, looked up): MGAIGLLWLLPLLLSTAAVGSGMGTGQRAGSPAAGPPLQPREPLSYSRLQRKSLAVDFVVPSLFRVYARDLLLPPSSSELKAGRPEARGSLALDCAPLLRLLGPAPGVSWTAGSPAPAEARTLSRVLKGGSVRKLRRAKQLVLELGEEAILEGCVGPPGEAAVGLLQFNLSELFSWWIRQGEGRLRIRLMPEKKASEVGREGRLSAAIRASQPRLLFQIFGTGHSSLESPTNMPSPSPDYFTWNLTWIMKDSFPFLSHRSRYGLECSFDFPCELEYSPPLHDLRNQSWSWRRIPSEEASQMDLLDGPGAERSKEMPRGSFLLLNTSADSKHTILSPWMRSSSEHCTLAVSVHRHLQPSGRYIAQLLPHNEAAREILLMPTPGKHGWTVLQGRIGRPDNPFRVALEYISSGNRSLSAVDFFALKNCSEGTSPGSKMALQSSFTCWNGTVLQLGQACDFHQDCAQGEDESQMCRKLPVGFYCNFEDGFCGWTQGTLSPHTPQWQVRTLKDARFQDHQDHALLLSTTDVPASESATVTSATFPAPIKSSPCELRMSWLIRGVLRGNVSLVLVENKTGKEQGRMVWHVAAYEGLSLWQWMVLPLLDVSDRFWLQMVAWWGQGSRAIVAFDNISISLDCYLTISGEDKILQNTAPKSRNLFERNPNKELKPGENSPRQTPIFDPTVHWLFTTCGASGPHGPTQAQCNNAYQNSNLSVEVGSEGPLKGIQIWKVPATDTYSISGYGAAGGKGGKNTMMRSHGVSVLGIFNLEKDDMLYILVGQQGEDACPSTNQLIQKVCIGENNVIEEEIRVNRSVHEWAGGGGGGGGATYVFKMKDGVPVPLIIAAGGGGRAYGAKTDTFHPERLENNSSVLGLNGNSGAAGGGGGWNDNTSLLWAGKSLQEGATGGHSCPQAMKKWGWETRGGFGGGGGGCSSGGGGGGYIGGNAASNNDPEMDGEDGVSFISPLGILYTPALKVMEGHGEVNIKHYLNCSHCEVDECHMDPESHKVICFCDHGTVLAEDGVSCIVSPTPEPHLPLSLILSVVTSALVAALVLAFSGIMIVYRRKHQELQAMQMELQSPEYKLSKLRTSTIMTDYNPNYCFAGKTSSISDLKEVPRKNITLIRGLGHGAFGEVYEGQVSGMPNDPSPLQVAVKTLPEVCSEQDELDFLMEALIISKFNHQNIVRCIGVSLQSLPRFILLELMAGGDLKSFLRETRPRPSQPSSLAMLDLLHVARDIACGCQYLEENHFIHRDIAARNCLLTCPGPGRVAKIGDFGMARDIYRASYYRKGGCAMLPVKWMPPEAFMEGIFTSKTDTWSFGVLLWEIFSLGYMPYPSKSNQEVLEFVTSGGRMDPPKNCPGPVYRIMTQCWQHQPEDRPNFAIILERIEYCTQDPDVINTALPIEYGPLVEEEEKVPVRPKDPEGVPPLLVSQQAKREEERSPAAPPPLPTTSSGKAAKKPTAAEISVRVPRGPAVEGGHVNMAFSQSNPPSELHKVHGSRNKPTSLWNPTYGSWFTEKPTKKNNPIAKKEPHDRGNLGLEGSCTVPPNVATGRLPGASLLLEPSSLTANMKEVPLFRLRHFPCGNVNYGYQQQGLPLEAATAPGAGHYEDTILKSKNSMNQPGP
Sequence of UniProt Q9BVS4 (whole entry, looked up): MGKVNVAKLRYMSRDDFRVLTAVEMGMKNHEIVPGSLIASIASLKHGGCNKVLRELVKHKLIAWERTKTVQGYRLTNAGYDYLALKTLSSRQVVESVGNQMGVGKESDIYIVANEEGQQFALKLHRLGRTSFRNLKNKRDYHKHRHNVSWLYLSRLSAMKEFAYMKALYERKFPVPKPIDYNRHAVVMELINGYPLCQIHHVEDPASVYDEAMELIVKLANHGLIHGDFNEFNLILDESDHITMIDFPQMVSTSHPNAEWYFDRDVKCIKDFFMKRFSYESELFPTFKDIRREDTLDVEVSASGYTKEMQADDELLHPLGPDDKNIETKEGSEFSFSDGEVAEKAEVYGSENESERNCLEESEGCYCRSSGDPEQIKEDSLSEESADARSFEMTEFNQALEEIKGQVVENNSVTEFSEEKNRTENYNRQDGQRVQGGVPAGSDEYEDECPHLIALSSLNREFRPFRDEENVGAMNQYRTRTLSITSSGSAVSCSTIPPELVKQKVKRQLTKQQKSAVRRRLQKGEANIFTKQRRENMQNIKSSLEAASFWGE
Sequence of UniProt Q9NRH2 (whole entry, looked up): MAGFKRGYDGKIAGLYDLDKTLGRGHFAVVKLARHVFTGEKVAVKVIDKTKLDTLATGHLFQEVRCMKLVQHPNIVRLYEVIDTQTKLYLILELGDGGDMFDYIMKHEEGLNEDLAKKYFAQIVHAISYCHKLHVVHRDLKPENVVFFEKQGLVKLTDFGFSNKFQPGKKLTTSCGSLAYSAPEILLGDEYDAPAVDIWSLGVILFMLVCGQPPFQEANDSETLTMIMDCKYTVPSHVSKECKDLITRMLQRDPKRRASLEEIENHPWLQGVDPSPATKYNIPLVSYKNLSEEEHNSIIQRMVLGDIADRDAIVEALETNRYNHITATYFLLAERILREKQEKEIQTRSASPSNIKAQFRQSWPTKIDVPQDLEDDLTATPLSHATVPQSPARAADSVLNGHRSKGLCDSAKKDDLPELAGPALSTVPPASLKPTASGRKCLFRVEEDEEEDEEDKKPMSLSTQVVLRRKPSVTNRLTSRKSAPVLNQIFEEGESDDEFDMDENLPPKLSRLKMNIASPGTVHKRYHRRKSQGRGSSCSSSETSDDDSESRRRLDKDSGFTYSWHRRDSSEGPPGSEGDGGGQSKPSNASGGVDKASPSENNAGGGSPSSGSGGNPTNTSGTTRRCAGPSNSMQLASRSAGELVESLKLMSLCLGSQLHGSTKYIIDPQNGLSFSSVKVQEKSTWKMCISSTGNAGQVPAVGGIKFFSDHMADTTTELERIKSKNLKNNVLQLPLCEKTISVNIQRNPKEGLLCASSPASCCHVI

`CCc1c(C)c2ccc(OCC=Cc3ccccc3)c(C)c2oc1=O` has a viability of 52% (PC-3; cell growth or viability, MTT; 62.5 µg/mL).
With `CCC(=CCc1c(O)cc2c(c1O)C(=O)C[C@H](c1ccccc1O)O2)CC` the inhibition was 32% (HeLa; cell growth or viability, MTT; 30 µM, 48 h).
The IC50 of `COc1ccc(C=CC(=O)NC(=O)c2ccccc2OC(=O)c2ccccc2)cc1OC` is reported as over 10 µM (HEK293; cell growth or viability).
`C[C@@H]1CC[C@@H]([C@](O)(CNCc2cccc3ccccc23)COCc2ccccc2)[C@H](OCc2ccccc2)C1` has an inhibition of 97.1% (HeLa; cell growth or viability, MTT; 10 µM, 72 h).
The cell death of `CC(=NNC(=O)c1ccccc1O)c1ccc(Nc2nnc(-c3ccc(Cl)cc3)c3ccccc23)cc1` is reported as 5.36% (MCF7; cell growth or viability, MTT; 0.625 µM).
With `CNc1ncc2c(/C=C/C(=O)N3CCCC(N(C)C)C3)nn(CC3CCCC3)c2n1` (stereo not shown) the EC50 was 16.7 µM (FLO-1; cell growth or viability, resazurin; 5 days).
With `CC(=NNC(N)=S)c1ccc(Nc2nnc(-c3ccc(Cl)cc3)c3ccccc23)cc1` the viability was 6.82% (MCF7; cell growth or viability, MTT; 0.312 µM, 24 h).
The inhibition of `CNCc1ccc(-c2nn(Cc3ccccc3)c3ccccc23)o1` is reported as 84% (RBE; cell growth or viability, ATP luminescence; 46 µM, 72 h).
For `Cc1ccc(C(CS(=O)(=O)c2ccccc2)=NN=C2N=C(c3ccc(Br)cc3)CS2)cc1`, the viability was 48.3% (WM 266-4; cell growth or viability, MTT; 6.3 µM, 48 h).
`CN(O)N=Nc1ccc(S(=O)(=O)Nc2nccs2)cc1` gave an inhibition of 95.8% (ABTS scavenging; 300 µg/mL).
`COc1cc(-c2cncc3c2CN(C)Cc2cc(N4CCNCC4)ccc2-3)cc(OC)c1OC` gave a remaining activity of 107% (Serine/threonine-protein kinase 17A (STK17A, Homo sapiens, UniProt Q9UEE5); enzyme activity, inhibitor; 1 µM).
`Cc1cccc(N(O)N=Nc2ccc(S(=O)(=O)Nc3cc(C)on3)cc2)c1` gave an inhibition of 81.4% (ABTS scavenging; 240 µg/mL).
For `O=C(Nc1ccccc1)Nc1ccc(Oc2nnc(-c3ccc(Cl)cc3)c3ccccc23)cc1`, the viability was 4.6% (MCF7; cell growth or viability, MTT; 0.625 µM, 24 h).
The EC50 of `Nc1ncnc2c1c(/C=C/C(=O)N1CCC(CCO)CC1)nn2CC1CCCC1` is reported as over 30 µM (FLO-1; cell growth or viability, resazurin; 5 days).
The viability of `CC(=NNC(=O)c1ccc(N)cc1)c1ccc(Nc2nnc(-c3ccc(Cl)cc3)c3ccccc23)cc1` is reported as 44% (MCF7; cell growth or viability, MTT; 0.625 µM, 24 h).
With `Cc1[nH]c(C)c(-c2ccc(CCc3ccc(F)cc3F)cc2)c(=O)c1Cl` the IC50 was over 10 µM (HEK293; cell growth or viability).
`CC(=NNC(=S)Nc1ccccc1)c1ccc(Nc2nnc(-c3ccc(Cl)cc3)c3ccccc23)cc1` gave a cell death of 0.177% (MCF7; cell growth or viability, MTT; 0.312 µM).
For `C1=C/COCc2cc(ccc2OCCN2CCCC2)Nc2nccc(n2)-c2cccc(c2)COC/1`, the remaining binding was 97% (ALK tyrosine kinase receptor (ALK, Homo sapiens, UniProt Q9UM73, L1196M); binding; 0.1 µM).
`S=C(Nc1ccccc1)Nc1ccc(Oc2nnc(-c3ccc(Cl)cc3)c3ccccc23)cc1` has a viability of 2.79% (MCF7; cell growth or viability, MTT; 10 µM, 24 h).
The remaining binding of `CCCCC(=O)Nc1ccc(-c2ccc3ncn(CCC)c(=O)c3c2)cn1` is reported as 100% (SNF-related serine/threonine-protein kinase (SNRK, Homo sapiens, UniProt Q9NRH2); binding, competition with immobilised ligand; 0.5 µM).
The IC50 of `Cc1ccc(C(=O)c2cc(O)c(O)c([N+](=O)[O-])c2)cc1` is reported as 0.291 µM (MB002; cell growth or viability; 7 days).
For `CC(=NNC(=O)COc1ccc2c(C)c(Cc3ccccc3)c(=O)oc2c1C)c1ccc(Br)cc1`, the viability was 12.5% (PC-3; cell growth or viability, MTT; 62.5 µg/mL).
With `Cc1cc([C@@H](C)Nc2ccccc2C(=O)O)c2nc(N3CCC(F)(F)CC3)c(C#N)c(=O)n2c1` the remaining binding was 78% (Serine/threonine-protein kinase RIO2 (RIOK2, Homo sapiens, UniProt Q9BVS4); binding, competition with immobilised ligand; 1 µM).
With `CC(=NNC(=O)c1ccncc1)c1ccc(Nc2nnc(-c3ccc(Cl)cc3)c3ccccc23)cc1` the viability was 24.6% (MCF7; cell growth or viability, MTT; 0.156 µM, 24 h).
`CCc1c(C)c2ccc(OCc3nnc(S)n3N)c(C)c2oc1=O` has a viability of 3.46% (PC-3; cell growth or viability, MTT; 250 µg/mL).
With `C=CC(=O)N1CCC(COCC(=O)N2CCN(c3nc(-c4cnc(N)nc4C(F)F)nc(N4CCOC[C@@H]4C)n3)CC2)CC1` the remaining binding was 100% (eIF-2-alpha kinase GCN2, C-terminal kinase domain (EIF2AK4, Homo sapiens, UniProt Q9P2K8, S808G); binding, competition with immobilised ligand; 1 µM).
For `Cc1[nH]c(C)c(-c2ccc(-c3ccc(OC(F)(F)F)cc3)cc2)c(=O)c1Br`, the IC50 was over 10 µM (HEK293; cell growth or viability).
For `CNc1ncc2c(/C=C/C(=O)N3CCC(c4ccccc4)CC3)nn(CC3CCCC3)c2n1`, the EC50 was over 30 µM (FLO-1; cell growth or viability, resazurin; 5 days).
With `CC(=NNC(=O)c1cccnc1)c1ccc(Nc2nnc(-c3ccc(Cl)cc3)c3ccccc23)cc1` the viability was 49.4% (MCF7; cell growth or viability, MTT; 0.625 µM, 24 h).
The inhibition of `C=C(COCc1ccc(F)cc1)[C@@H]1CC[C@@H](C)C[C@H]1OCc1ccc(F)cc1` is reported as 52% (A2780; cell growth or viability, MTT; 30 µM, 72 h).
For `C=C(C)Cn1nc(-c2ccc(CO)o2)c2ccccc21`, the inhibition was 48% (RBE; cell growth or viability, ATP luminescence; 46 µM, 72 h).
